Assay results from different studies.
Parts stem from different laboratories: compare values within a part only. Substitutions count along the parent as printed.

Study 1
Target: Sal-like protein 4, full length isoform A (SALL4, Homo sapiens, UniProt Q9UJQ4, residues 1-1053)
UniProt Q9UJQ4, sequence (whole entry, looked up): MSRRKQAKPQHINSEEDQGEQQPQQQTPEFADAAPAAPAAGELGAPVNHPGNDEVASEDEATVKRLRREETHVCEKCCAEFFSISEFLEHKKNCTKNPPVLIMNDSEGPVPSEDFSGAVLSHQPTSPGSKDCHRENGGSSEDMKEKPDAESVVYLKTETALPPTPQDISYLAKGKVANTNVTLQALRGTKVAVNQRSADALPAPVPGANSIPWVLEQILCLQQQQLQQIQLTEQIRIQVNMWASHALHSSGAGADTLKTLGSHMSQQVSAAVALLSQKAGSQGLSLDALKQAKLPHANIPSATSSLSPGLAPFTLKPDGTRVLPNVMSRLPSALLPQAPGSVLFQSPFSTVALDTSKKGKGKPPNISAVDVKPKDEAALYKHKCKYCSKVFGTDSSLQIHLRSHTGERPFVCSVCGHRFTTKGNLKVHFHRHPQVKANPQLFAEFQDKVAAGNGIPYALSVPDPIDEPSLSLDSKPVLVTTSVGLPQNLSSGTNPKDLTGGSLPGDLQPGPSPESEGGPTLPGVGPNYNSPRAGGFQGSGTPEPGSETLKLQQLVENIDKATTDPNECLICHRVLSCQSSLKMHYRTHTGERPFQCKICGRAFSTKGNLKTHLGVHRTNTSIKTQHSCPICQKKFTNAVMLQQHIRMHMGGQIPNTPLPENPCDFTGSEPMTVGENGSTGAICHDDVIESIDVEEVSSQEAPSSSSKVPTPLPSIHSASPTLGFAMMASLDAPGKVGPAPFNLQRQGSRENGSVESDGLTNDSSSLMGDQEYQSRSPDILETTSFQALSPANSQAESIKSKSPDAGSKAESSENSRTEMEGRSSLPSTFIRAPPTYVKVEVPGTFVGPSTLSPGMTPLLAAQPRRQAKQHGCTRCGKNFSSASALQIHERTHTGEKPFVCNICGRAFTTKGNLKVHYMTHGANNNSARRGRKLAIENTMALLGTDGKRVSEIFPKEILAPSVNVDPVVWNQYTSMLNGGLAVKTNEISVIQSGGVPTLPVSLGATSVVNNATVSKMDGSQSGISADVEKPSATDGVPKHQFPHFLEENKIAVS
Technique: universal PBM
Molecule type: double-stranded DNA, one strand shown
Medium: in vitro
Tested at: 600 nM
Notes: 8-mer, flanks averaged, mean of replicates
Reading: higher = stronger binding
Measurement: E-score
ATGAAAAT: 0.368
AGGTTAAT: 0.197
GCTTCAAC: -0.0992
CCCTGAGG: -0.318
AACACATA: 0.322
ACCGGACC: -0.338
CTACGTGC: -0.0474
CAGCGTTA: -0.0838
AAGTCTTA: 0.116
CCCCATCC: -0.27
ATTCGAGG: -0.0614
CGCCACAA: -0.118
AGAAACCA: -0.0145
GACTATAC: 0.137
ATTCGTCG: -0.0586
CTTACCGC: -0.258
GAGCCTCA: -0.196

Study 2
Target: Probable WRKY transcription factor 50, DNA-binding domain (WRKY50, Arabidopsis thaliana, UniProt Q8VWQ5, residues 99-173)
Technique: DNA-protein interaction ELISA
Molecule type: double-stranded DNA, one strand shown
Medium: in vitro, bacterial lysate
Tested at: not given
Notes: whole dsDNA probe, crude lysate protein
Baseline: highest signal in screen
Reading: higher = stronger binding
Measurement: relative absorbance
Construct (chain): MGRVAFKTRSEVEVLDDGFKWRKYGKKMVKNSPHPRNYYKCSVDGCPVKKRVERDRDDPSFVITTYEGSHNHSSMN
AAAAAATCCCCCCGTTTCACTCTTGCAAAA: 37.5 % of maximum
AAAAAATAATTACAAGTCGGCTCCACAAAA: 15.4 % of maximum
AAAAAAACTCTCCGGGTACAATTGCAAAAA: 32.3 % of maximum
AAAAAAACATCCACACCCGCGGCGCGAAAA: 36 % of maximum
AAAAAATTGCATTCCACCCTTAGGTTAAAA: 44.1 % of maximum
AAAAAAGCGCGAATTCTAGAACTATAAAAA: 18.2 % of maximum
AAAAAAAAGCTTCGGAGTCTTGAGAAAAAA: 37.9 % of maximum
AAAAAACTGCTTGCCCCTGTCTCCATAAAA: 32.8 % of maximum
AAAAAATCTAGGGGTACCTATTTGGCAAAA: 12.8 % of maximum
AAAAAATCGCACTGCCGCCGATGGCTAAAA: 23.3 % of maximum
AAAAAAGTCTAGTCGTAAAAA: 88.6 % of maximum
AAAAAAACCTCTTTATTCTCGATTGTAAAA: 29.8 % of maximum
AAAAAATTTATACTTGATCCTGGCTTAAAA: 15.3 % of maximum
AAAAAATCGGTACGCACCCCGGACTCAAAA: 19.4 % of maximum
AAAAAACCTTACCTCATCCCTATCCCAAAA: 20.8 % of maximum
AAAAAACCTCTTGTCTCTGCTCTCCCAAAA: 26 % of maximum
AAAAAATATGCTACTCCACCTTGATGAAAA: 19 % of maximum
AAAAAATATGTAGCTGCCGTTACGCTAAAA: 25.7 % of maximum
AAAAAATTCCCAGCGTATCCGACCCGAAAA: 24.9 % of maximum

Study 3
Target: Prothrombin, mature alpha-thrombin (F2, Homo sapiens, UniProt P00734)
Technique: aptamer microarray, sandwich
Molecule type: DNA with 2'F-ANA
Medium: in vitro
Tested at: 200 nM
Notes: whole 15-mer aptamer, many near background
Together with: Cy3 exosite-II aptamer, 400 nM
Reading: higher = stronger binding
Measurement: mean fluorescence intensity
Sequence: GGTTGGTGTGGTTGG
2'F-ANA at 2 4 5 7 8 12 14 15: 81.7 a.u.
2'F-ANA at 3 8 13 14 15: 546 a.u.
2'F-ANA at 2 3 7 8 9 10 11 13: 345 a.u.
2'F-ANA at 1 4 8 9 11 12 13 14 15: 54.1 a.u.
2'F-ANA at 1 2 4 6 13 14 15: 61.2 a.u.
2'F-ANA at 1 4 7 12: 338 a.u.
2'F-ANA at 1 4 5 8 10 11 12: 47.6 a.u.
2'F-ANA at 1 4 6 7 9 11 13 15: 71.1 a.u.
2'F-ANA at 1 2 3 4 5 6 7 9 12 14: 50 a.u.
2'F-ANA at 2 4 8 10 12 15: 134 a.u.
2'F-ANA at 2 4 7 8 9 11: 324 a.u.
2'F-ANA at 1 3 4 5 7 9 10 11 12: 82.8 a.u.
2'F-ANA at 2 3 5 6 7 8 9 12 13 14 15: 57.6 a.u.
2'F-ANA at 4 5 6 7 9 13 14: 44.3 a.u.
2'F-ANA at 1 4 6 11 13: 81.8 a.u.
2'F-ANA at 1 2 4 5 10 12 13: 46.1 a.u.
2'F-ANA at 2 3 9 10 11 12 13: 384 a.u.
2'F-ANA at 1 2 4 5 6 11 13 15: 50.1 a.u.
2'F-ANA at 4 6 7 9 13 14 15: 64.1 a.u.
2'F-ANA at 5 8 10 11: 47.7 a.u.
2'F-ANA at 3 4 5 9 11 15: 121 a.u.
2'F-ANA at 1 2 3 6 9 12 14: 77.6 a.u.

Study 4
Target: POU domain, class 5, transcription factor 1, POU domain (Pou5f1, Mus musculus, UniProt P20263, residues 131-289)
UniProt P20263, sequence (131-289, looked up): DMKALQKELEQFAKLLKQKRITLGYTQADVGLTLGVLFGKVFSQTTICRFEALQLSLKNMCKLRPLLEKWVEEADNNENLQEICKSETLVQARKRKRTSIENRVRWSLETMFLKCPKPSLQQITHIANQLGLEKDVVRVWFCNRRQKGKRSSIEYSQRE
Technique: Spec-seq
Molecule type: double-stranded DNA, one strand shown
Medium: in vitro
Tested at: not given
Notes: whole probe, mean of replicates
Baseline: not given
Reading: lower = stronger binding
Measurement: relative binding energy
All sequences stand within: GAGTCGTCTCGTCAGCAC … CCGTAGAGCACTCAGGTC
ATACCGAT: 0.564 ln ratio
ATGACTAT: 0.105 ln ratio
ATGCCCTA: 0.358 ln ratio
ATGCCGGT: 0.833 ln ratio
ATCTCTAT: 0.512 ln ratio
ATGCTAGG: 0.601 ln ratio
ATCTAAAT: -0.585 ln ratio
ATGCCTTC: 0.533 ln ratio
ATGCTGGT: 0.658 ln ratio
TCTATAAT: 0.63 ln ratio
ATATGAAT: -0.736 ln ratio
ATGCTGTC: 0.556 ln ratio
ATGCATGA: -0.533 ln ratio
TCTGTAAT: 0.66 ln ratio
TTGTTAAT: -1.39 ln ratio
ATGCTTCG: 0.585 ln ratio
ATGCCACC: 0.702 ln ratio
ATGCCACT: 0.671 ln ratio

Study 5
Target: ABI1, truncated, D143A, DHFR fusion (Arabidopsis thaliana)
Technique: DHFR PCA, deep sequencing
Medium: yeast
Notes: methotrexate growth selection, single substitutions
Together with: (+)-ABA 0.11 µM
Baseline: wild-type fitted maximum
Reading: higher = stronger binding
Measurement: relative binding score
Starting sequence: PYL1, truncated, DHFR fusion (Arabidopsis thaliana); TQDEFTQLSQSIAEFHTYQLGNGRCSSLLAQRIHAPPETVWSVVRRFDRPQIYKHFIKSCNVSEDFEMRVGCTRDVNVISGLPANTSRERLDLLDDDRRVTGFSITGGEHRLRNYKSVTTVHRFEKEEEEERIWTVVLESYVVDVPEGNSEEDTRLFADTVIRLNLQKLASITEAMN; partner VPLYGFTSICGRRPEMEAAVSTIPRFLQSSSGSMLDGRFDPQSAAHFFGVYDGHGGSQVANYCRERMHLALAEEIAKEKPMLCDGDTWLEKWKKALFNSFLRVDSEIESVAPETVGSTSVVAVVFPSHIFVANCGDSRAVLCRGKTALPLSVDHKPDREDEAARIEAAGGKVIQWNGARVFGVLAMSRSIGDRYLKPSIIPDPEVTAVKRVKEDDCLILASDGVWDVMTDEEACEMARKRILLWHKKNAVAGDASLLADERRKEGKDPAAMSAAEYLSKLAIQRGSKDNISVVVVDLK
N149E: 33.4%
I57T: -12.7%
T39E: 16.2%
F66I: 0.183%
R74V: 0.426%
K54W: -4.18%
Q2L: 67.3%
E174S: 3.26%
V78P: 0.244%
L112H: -0.79%
Y53D: -0.45%
V161R: 1.76%
R113D: 1.57%
K54P: -0.397%
E147S: 10.9%
L91H: -4.61%
T119Q: 9.12%
P83I: 2.04%
M176S: 10.3%
E89W: 8.7%
N77C: 55.3%
R49A: 35.2%
T154Y: -28.4%
E131L: 34.3%
N114Q: -11.6%

Study 6
Target: RNA binding protein fox-1 homolog 2, RRM domain, GST-SBP tag (RBFOX2, Homo sapiens, UniProt O43251-10, residues 100-194)
Technique: RNA Bind-n-Seq
Molecule type: RNA
Medium: in vitro
Tested at: 365 nM
Notes: natural RNA segment, single round, ends assumed
Baseline: no-protein control
Reading: higher = stronger binding
Measurement: RBNS enrichment (R)
All sequences stand within: GGGAGUUCUACAGUCCGACGAUC … UGGAAUUCUCGGGUGCCAA
Construct (chain): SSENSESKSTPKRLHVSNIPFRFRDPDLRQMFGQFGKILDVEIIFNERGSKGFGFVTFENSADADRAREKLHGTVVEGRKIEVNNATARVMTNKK
GCUGGAUGGGAUGGGGCUCCAAGUCUGAGAUUUCAUUGAUACUAGGCAAUAUGGUUUGUAAAAUACAGAAACACUGCCCAAUUGUGAUGUUGUCAAUGGGCUCCUGAUGC: 0.538
AAGUCACUUCCAGUGUUGGCUGUGUGACAGAAUCUUGUAUUUGGGCCAAGGUGUUUCCAUUUCUCAAUCAGUGCAGUGAUACAUGUACUCCAGAGGGACAGGGUGGACCC: 0.415
UUUCUCACUGUGCUGCUGAGGUUCUGACCUGGUGUGUCUGACAUUGCAUCAGGCUUUGCAGAACAAAUGUGAUUCACUUAAACGUUCACACACAGCAACACUGAAAUCCU: 0.853
GCCCAGCACUUUGUAGUCUCAUCCCAGAUUACUAACCCUUCCUGAUCCUGGAGAGGCAGGGAUAGUAAAUAAAUUGCUCUUCCUACCCCAUCCCCCAUCCCCUGACAAAA: 1.02
AAGGUGGUUUGCAACAGUGCUUAGCUCGAGCCUCCAUAUUUCCAUAACUGUUAGCUUAAAACUGUGGGGUUUUACCUUCCUGGAACCAAAUGCAUUCUUCUGUUGAGGAG: 0.326
GGUGAUAAUAAGAUAUAGAAUGCUUUUGUUCAGUUCUCCCCUUACAAAGAAAGUCCCUUGCUUGUCUGCACCAGGGAAGCAAGAGCUCCCAGUGACACCACCCCCUGCCU: 1.01
UUUCUUGCUUUUUGUUUUGUUUUGUUUUAUUAUUUUCAUAUCACCUCCAUCCCAUAAAGUUGUACUGUGAACUGGAAGAUGGUGGAAUGUUUUGGAAUUUGAUAGACUUU: 2.76
CACCACGGUCGACGACGGCUGGAGGGACGUUUCAGAGGCGAGUCCUGGGUGGCUCCUCGCCUUGGGGGCUCCUGGCCCUGAGGCUGGCGGUGGCCGCAUGCCGGCGCGUG: 2.82
UCCUAGAACUUUAUUUGUAGACCAGGUUGGCCUGGAAUUUACAGAGAUCUGCCUACCUCUCUGCCUAUGCCUAAGCCUAAGCCUAAGCCUAAGCCUAAGCCUAUGCCUAU: 0.334
ACUAUCUCAGUUACCAGAAUCUUGCUGCUCAAGUUUCGAGUGAUCGACAAUGGAUUUUUAACCAAGACAUUUUUGUUUUUGGAAAAAAAAAAAAAAUCAAAUGCAGUGAC: 0.6
AAAAAAAAAAAAAGUGUCUCCAGGAGGCUGUCCAGCCUCGUGGCUCCAUUUCAACAUCUCCCCCCAGGCGAUGUUCUCCCCCAAGACGACCAGAAAAUUGUUUAUUGGGG: 0.242
CCACCCAUCCACUCCUUGCCAAGUGUUACCCAGAUGGUGGAGGAUGUGAAGGGAUUGCACCAAGCCACAUUCACUCUCUCUGUGGCCUUUCUUCCUCUGGGCAAAGAAGG: 0.43

Some of these lines once more (study 4):
ATGCTTCG: 0.585 ln ratio
ATGCATGA: -0.533 ln ratio
ATGCTGTC: 0.556 ln ratio
TCTATAAT: 0.63 ln ratio
ATCTCTAT: 0.512 ln ratio
TTGTTAAT: -1.39 ln ratio
ATCTAAAT: -0.585 ln ratio
ATATGAAT: -0.736 ln ratio
TCTGTAAT: 0.66 ln ratio
